Results pooled from the literature.
Protocols differ between the studies behind these lines. “And” joins repeats or separate records; there may be more than shown. ± gives the spread as reported.

SMILES	method	host	matrix	route	dose	time	plasma concentration
[2H]C([2H])(N)C([2H])([2H])NC(=O)c1cc(C2CC2)nc2c1cnn2C(C)C		mouse BALB/c female	plasma	intraperitoneal	50 mg/kg	0.5 h	2170 ng/mL and 2570 ng/mL and 2840 ng/mL and 2200 ng/mL
Cc1ncsc1-c1ccc(CNC(=O)[C@@H]2C[C@@H](O)CN2C(=O)[C@@H](NC(=O)COCC(C)(COCCOCCOCCNC(=O)C[C@@H]2N=C(c3ccc(Cl)cc3)c3c(sc(C)c3C)-n3c(C)nnc32)COCCOCCOCCNC(=O)C[C@@H]2N=C(c3ccc(Cl)cc3)c3c(sc(C)c3C)-n3c(C)nnc32)C(C)(C)C)cc1		C57BL/6 mouse, male	plasma	intravenous	5 mg/kg	15 min	14700 ng/mL
Cc1nn(-c2nc3c(F)cc(F)cc3s2)c(O)c1C(c1ccc(C(F)(F)F)cc1)c1c(C)nn(-c2nc3c(F)cc(F)cc3s2)c1O		ICR mouse		oral	50 mg/kg	24.0 h	509 ng/mL and 2880 ng/mL and 226 ng/mL
C=CC(=O)N1CCCC(n2c(=O)c3ncccc3n(Cc3ccc(Oc4ccccc4)cc3)c2=O)C1 (stereo not shown)		male BALB/c mouse	plasma	intraperitoneal	200 mg/kg	0.5 h	93500 ng/mL
CC#CC(=O)N1CCC[C@H]1c1nc(-c2ccc(C(=O)Nc3ccccn3)cc2)c2c(N)nccn12		mouse, TMD8 tumour-bearing	plasma		7.5 mg/kg twice daily	8 h	2.5 ng/mL
O=C1CCC(N2Cc3cc(C(=O)O)c(F)cc3C2=O)C(=O)N1 (stereo not shown)		CD-1 mouse, male		oral	10 mg/kg parent drug	0.33 h	174 ± 86.2 ng/mL
Cc1ccc(OCC(=O)N(Cc2cccs2)c2ccn[nH]2)cc1		mouse, CD-1, male	plasma	oral	30 mg/kg	1 h	221 nM
CC(C)n1ncc2c(C(=O)NC[C@@H](C)N)cc(C3CC3)nc21		mouse BALB/c female	plasma	intraperitoneal	30 mg/kg	0.25 h	1030 ng/mL and 1270 ng/mL and 1090 ng/mL and 1080 ng/mL
CC1(C)CC[C@@]2(CO)C(=C3C=C[C@@H]4[C@@]5(C)CC[C@H](O)[C@@](C)(CO)[C@@H]5CC[C@@]4(C)[C@]3(C)C[C@@H]2O)C1	UHPLC-MS/MS	mouse	plasma	oral	50 mg/kg of saikosaponin a	0.5 h	0 ng/mL
O=C1C2CC3CC1CC(C(=O)N1CCN(c4ccc([N+](=O)[O-])c5ncccc45)CC1)(C3)C2		ICR mouse, male		oral	5 mg/kg	0.25 h	29.7 ng/mL

For quick reference, copied from above:
SMILES	method	host	matrix	route	dose	time	plasma concentration
Cc1ccc(OCC(=O)N(Cc2cccs2)c2ccn[nH]2)cc1		mouse, CD-1, male	plasma	oral	30 mg/kg	1 h	221 nM
